Assay results of several laboratories.
Each numbered part is a random draw from the data of one study; scales do not carry over between parts. Changes are numbered by the printed parent chain.

Study 1
Target: RNA binding protein fox-1 homolog 2, RRM domain, GST-SBP tag (RBFOX2, Homo sapiens, UniProt O43251-10, residues 100-194)
Method: RNA Bind-n-Seq
Form: RNA
Sample: in vitro
Tested at: 365 nM
Notes: natural RNA segment, single round, ends assumed
Baseline: no-protein control
Direction: higher = stronger binding
Endpoint: RBNS enrichment (R)
Construct (chain): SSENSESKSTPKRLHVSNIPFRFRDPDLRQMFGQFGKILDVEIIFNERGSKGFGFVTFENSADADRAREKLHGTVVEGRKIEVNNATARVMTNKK
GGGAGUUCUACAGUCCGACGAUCAGCACUUGGCUGGUGGAGAGAUUUUUUUCAUUAUGGAGCUAAUAAAGGGUCCCUACGUUUUACAUUGAUUAAUGAAUUAUCACCCAGACAUGUGCAGAUGAAAUGUCAAUUGGAAUUCUCGGGUGCCAA: 0.376
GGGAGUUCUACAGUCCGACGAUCGGACUGGUGCUAACCACCUGCCAUCAUGAGGAUGUGUGCUAGAGUGUGGGACCCUGGCCAAGUGCAGGAAUGGGCCAUGCCGUCUCACCCACAGUAUCACACGUGGAACCUGGAAUUCUCGGGUGCCAA: 3
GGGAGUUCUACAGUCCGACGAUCUAUCAAGCAGUACAUGAAAGUGUAAUAAUAAAAUGUCUAUGUAUCUUUAGUUACAUUCAGAUUUGUAACUUUAUAAACAUGUUUUCUGCCUGAGGUACUUUUUAAGGAGGUGGAAUUCUCGGGUGCCAA: 0.332
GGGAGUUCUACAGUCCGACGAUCCCAUGCCCGGCUAAUUUUUUUGUAUUUUUAGUAGAGACCAGGCUUCGCCAUGUUGGCCAGGCUGGUCUCGAACCCCUGAGCUCAGGUGAUCCACCUGCCUCGGCCUCCCAUGGAAUUCUCGGGUGCCAA: 0.34
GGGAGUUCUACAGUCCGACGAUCAGGCGUGGGGCUGCCAGGCUCGGGCUUGGCACACCAAAGGCCAGCUGCAUGUCAGUUUCUCUCCUUCCACAGUUAUGUUGGCUUCCAUGCUUUUUCAGAUUGUGUGGUAGUGGAAUUCUCGGGUGCCAA: 1.24
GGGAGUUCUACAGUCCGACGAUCGAGAGGGAAUCAGAGGUGGCUUAGUUCCCUGAAGACAGCCUUAUGCGCUUAAUCCCUGCCUUUGAAAAAUGGGCCAAUACACAACACAGACAAUAAUUUGAAGCGUCUGUUGGAAUUCUCGGGUGCCAA: 0.63
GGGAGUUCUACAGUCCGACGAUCAGUUUUCAUUUAAACACUUAGUUCAGAAACCUUAAAGGAUUUGAAUAUUUCAAAUUGCACACGUCACUCCAGCAUCUCUGUAAAAUAAUUGGAAUGAAAAUACUUCUUGCUGGAAUUCUCGGGUGCCAA: 1.31
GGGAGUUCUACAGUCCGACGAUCAUAAAUGGUAUUCUAAUAAAAUUGUGUACUAUCCUGUGUGCUUAGUUUUAAGAUCAACCAAUAGAUAUAUAUCCUACAAUUGAUAUAUUGCUUUAUUCACACUUUUAUUGUGGAAUUCUCGGGUGCCAA: 0.369
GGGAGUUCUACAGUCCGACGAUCCCUGGCCACUGGGUGCCACCCAGCCUGUGUGCCCUCCCUGGGGCUGAGGAGGCAGGCGGCUGCUAGUUGUGGCCCUUCCUGGAAGGAGAGGCCUGCAGGGCUCGACCCUGUGGAAUUCUCGGGUGCCAA: 0.228
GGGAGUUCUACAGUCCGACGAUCGUUCUUAAAAUUAUCAACCUUUGUUACGGAUGGGCCUCCACUAGGUGGCUGUGGGUAAAGUCUUGGGGGGAGGAUAGGAAAGGAGACCGGCUGAGCCUCAGGGCUAAUUGUGGAAUUCUCGGGUGCCAA: 0.42
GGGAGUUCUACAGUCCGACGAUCUGUCUUUUCAGUGCAGGCUGUAACAACCCACUCAGGAGACAGUGAGAGUGAAAAGGUAUUAAGGAAAAAGCCCCCAGCGGCACUAUGGGGGCUCCCUGGCGCAUGCCUGCUGGAAUUCUCGGGUGCCAA: 1.45
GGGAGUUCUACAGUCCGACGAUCAGAUACCAGUAGAAGAAUUGGAUGUUAUACUAUACUUAGCACCUUAAUUCUACUUAACAUUUACUUCUUAAGCUGACAACUAGAUUCAGAAAUACAAGAAAAAUAGACUAUGGAAUUCUCGGGUGCCAA: 0.346

Study 2
Target: Fragile X messenger ribonucleoprotein 1, C-terminal low-complexity region (Fmr1, Mus musculus, UniProt P35922)
Method: RNA Bind-n-Seq
Form: RNA
Sample: in vitro
Tested at: 200 nM
Notes: whole 134-nt RNA, ends assumed
Together with: 150 mM LiCl
Baseline: input library
Direction: higher = stronger binding
Endpoint: log2 enrichment
Library: 7-deaza-guanosine replaces G
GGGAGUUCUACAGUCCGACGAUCUUUGAUGACAGUCUGCAGGAGCUGCCUGGUGAAGUACCUGGAGGAGAACAACACCUGCCCCACCUGCAGGAUUGUGAUCCACCAGAGCCAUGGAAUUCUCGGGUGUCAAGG: -1.27
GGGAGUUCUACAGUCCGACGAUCUCCUGUGCUACACAUCGUAUGUACCGAAUCGGGGAAAAAGGGGAAAAAGGAAAAAGGGGAAAGUAUUAUGUUACGCCGUUCGGAUCUGCAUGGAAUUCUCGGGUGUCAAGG: -0.842
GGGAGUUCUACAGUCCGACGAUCCUCAAGUCCUGUGCUACACAUCGUAUGUACCGAAUCGGUUGGGGUUGGGGUUGGAAAGUAUUAUGUUACGCCGUUCGGAUCUGCACUUCCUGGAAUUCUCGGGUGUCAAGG: -0.387
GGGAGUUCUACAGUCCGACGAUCCUGUGCUACACAUCGUAUGUACCGAAUCGGGGUUUUUUUGGGUUUUUUUGGGGUUUUUUUGGAAAGUAUUAUGUUACGCCGUUCGGAUCUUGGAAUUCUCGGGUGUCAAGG: 1.29
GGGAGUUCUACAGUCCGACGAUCUCAAGUCCUGUGCUACACAUCGUAUGUACCGAAUCGGGUUUGGGUUUGGGUUUGGAAAGUAUUAUGUUACGCCGUUCGGAUCUGCACUUCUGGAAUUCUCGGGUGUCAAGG: -1.01
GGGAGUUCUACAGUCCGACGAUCGCAGGAAGUAAAAACAAAUGGAAAUGCUUCGGAUAGUGGCAGGGGUGGGGGUUGCUAAGGAAAGGGUGGGAUGGGAGUGGGUAAAGUGUUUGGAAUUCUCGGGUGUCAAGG: 1.86
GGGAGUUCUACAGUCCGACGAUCUCCUGUGCUACACAUCGUAUGUACCGAAUCGGGGUUUUUGGGGUGGGGAAAAAAAGGGGAAAGUAUUAUGUUACGCCGUUCGGAUCUGCAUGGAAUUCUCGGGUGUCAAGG: -1.92
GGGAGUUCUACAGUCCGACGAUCCAAGUCCUGUGCUACACAUCGUAUGUACCGAAUCGGGGUUUGGGGUUUGGGUUUGGAAAGUAUUAUGUUACGCCGUUCGGAUCUGCACUUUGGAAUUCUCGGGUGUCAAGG: -1.53
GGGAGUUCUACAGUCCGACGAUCUGCUGCUUUCUGCCUUGGUGGCAGGCAGAGAACUGUCUCGUACUAGAAUUCAAGGAGGAAAGAAGAAGAAAUAAAAGAAGCUGCUCCAUUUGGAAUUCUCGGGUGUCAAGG: -0.191
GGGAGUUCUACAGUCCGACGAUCAAGUCCUGUGCUACACAUCGUAUGUACCGAAUCGGGAAAAAAAGGGUGGGUUUGGGAAAGUAUUAUGUUACGCCGUUCGGAUCUGCACUUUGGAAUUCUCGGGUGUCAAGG: -2.47
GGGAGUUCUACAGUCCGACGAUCCACAGACAACACGCACCCACACAGACACAGAGGGAAGGGUUUGGGAUGGGGACAGGGUGCACAGCAGGGCGGGGUAGGACCCCAGCCCCUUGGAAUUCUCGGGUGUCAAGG: -1.17

Study 3
Target: ABI1, truncated, D143A, DHFR fusion (Arabidopsis thaliana)
Method: DHFR PCA, deep sequencing
Sample: yeast
Notes: methotrexate growth selection, single substitutions
Together with: (+)-ABA 710 µM
Baseline: wild-type fitted maximum
Direction: higher = stronger binding
Endpoint: relative binding score
Starting sequence: PYL1, truncated, DHFR fusion (Arabidopsis thaliana); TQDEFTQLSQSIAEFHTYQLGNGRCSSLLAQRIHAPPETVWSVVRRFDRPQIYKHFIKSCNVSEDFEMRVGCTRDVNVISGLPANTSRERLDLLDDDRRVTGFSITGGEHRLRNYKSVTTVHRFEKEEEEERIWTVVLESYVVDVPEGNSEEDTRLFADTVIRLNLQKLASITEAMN; partner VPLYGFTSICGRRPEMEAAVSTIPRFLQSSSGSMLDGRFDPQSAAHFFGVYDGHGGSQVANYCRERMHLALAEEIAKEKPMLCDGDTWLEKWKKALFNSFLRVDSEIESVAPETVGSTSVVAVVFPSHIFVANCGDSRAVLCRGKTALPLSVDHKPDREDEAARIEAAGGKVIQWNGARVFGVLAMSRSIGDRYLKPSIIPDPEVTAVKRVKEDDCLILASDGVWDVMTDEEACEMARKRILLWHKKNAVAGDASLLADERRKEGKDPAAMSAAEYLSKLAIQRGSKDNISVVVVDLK
D97V: 113%
E129F: 107%
R88K: 106%
E4N: 101%
A175K: 101%
Q167F: 86.9%
E38M: 75.4%
N85W: 98.3%
E128Q: 111%
R99K: 115%

Single results of other studies
PhoQ, residues 284 288 289 292 302 303 SLCLSL  fold induction (PhoP, residues 12 14 15 18 19 HEGLL (Escherichia coli, UniProt P23836); Sort-seq, item: YFP reporter; E. coli; PhoQ-PhoP variant library, together with: 10 µM Mg2+; baseline: high Mg2+ state, higher = stronger signaling): 6.73

Some of these lines once more (study 1):
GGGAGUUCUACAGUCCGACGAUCGAGAGGGAAUCAGAGGUGGCUUAGUUCCCUGAAGACAGCCUUAUGCGCUUAAUCCCUGCCUUUGAAAAAUGGGCCAAUACACAACACAGACAAUAAUUUGAAGCGUCUGUUGGAAUUCUCGGGUGCCAA: 0.63
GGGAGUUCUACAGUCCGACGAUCAGUUUUCAUUUAAACACUUAGUUCAGAAACCUUAAAGGAUUUGAAUAUUUCAAAUUGCACACGUCACUCCAGCAUCUCUGUAAAAUAAUUGGAAUGAAAAUACUUCUUGCUGGAAUUCUCGGGUGCCAA: 1.31
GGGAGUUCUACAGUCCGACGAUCAUAAAUGGUAUUCUAAUAAAAUUGUGUACUAUCCUGUGUGCUUAGUUUUAAGAUCAACCAAUAGAUAUAUAUCCUACAAUUGAUAUAUUGCUUUAUUCACACUUUUAUUGUGGAAUUCUCGGGUGCCAA: 0.369
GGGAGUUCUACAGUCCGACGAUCCCUGGCCACUGGGUGCCACCCAGCCUGUGUGCCCUCCCUGGGGCUGAGGAGGCAGGCGGCUGCUAGUUGUGGCCCUUCCUGGAAGGAGAGGCCUGCAGGGCUCGACCCUGUGGAAUUCUCGGGUGCCAA: 0.228
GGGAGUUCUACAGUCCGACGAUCGUUCUUAAAAUUAUCAACCUUUGUUACGGAUGGGCCUCCACUAGGUGGCUGUGGGUAAAGUCUUGGGGGGAGGAUAGGAAAGGAGACCGGCUGAGCCUCAGGGCUAAUUGUGGAAUUCUCGGGUGCCAA: 0.42
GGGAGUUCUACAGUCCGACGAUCUGUCUUUUCAGUGCAGGCUGUAACAACCCACUCAGGAGACAGUGAGAGUGAAAAGGUAUUAAGGAAAAAGCCCCCAGCGGCACUAUGGGGGCUCCCUGGCGCAUGCCUGCUGGAAUUCUCGGGUGCCAA: 1.45
